Results gathered from unrelated publications.
Protocols differ between the studies behind these lines. Numbers after ± are the reported error.
Target: Mu-type opioid receptor (OPRM1, Homo sapiens, UniProt P35372)
Chain of UniProt P35372 (whole entry, looked up): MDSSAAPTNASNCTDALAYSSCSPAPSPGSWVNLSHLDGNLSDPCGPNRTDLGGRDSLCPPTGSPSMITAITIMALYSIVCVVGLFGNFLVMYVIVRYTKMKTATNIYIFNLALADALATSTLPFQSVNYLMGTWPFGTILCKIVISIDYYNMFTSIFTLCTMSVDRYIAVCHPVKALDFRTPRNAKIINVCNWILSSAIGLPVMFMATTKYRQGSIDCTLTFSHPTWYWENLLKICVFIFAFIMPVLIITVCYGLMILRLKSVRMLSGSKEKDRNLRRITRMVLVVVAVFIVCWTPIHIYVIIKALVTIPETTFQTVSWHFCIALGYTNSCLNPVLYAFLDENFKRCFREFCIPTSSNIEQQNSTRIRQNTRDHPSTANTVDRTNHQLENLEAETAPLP

| Compound | test | system | conditions | measurement | value |
| --- | --- | --- | --- | --- | --- |
| COc1cc2c(cc1NC(=O)c1cncn1C)C[C@H]1[C@H]3CCCC[C@@]23CCN1C | ligand displacement, radioligand | – | – | IC50 | > 30000 nM |
| O=C(O)CCn1c(=O)oc2cc(Cl)c(Cl)cc21 | antagonist | – | median value | IC50 | > 100000 nM |
| COc1cc2c(cc1-n1ccnc1)C[C@H]1[C@H]3CCCC[C@@]23CCN1C | ligand displacement, radioligand | – | – | IC50 | 2300 nM |
| COc1cc2c(cc1O)C(CCc1ccc(Cl)cc1)N(C)CC2 (centres unmarked) | cell-free assay, radioligand | – | – | Ki | 66 nM |
| CN1CC[C@]23c4c5ccc(O)c4C[C@H]2[C@@H](O)C=C[C@H]3[C@H]1C5 | – | cell-based | – | IC50 | 7.4 nM |
| CN(C)[C@H](CNC(=O)/C=C/c1cccc2ccccc12)Cc1ccc(O)cc1 | receptor activation, agonist | – | – | EC50 | 18 ± 2 nM |
| O=C(Cc1ccc(Cl)c(Cl)c1)N1CCNC2COCC(N3CCCC3)C21 (centres unmarked) | binding, radioligand displacement | CHO cell membranes | added: [3H]DAMGO | Ki | > 10000 nM |
| CCCCCCCCCCCCCCCCCC(=O)NC[C@H]1CC[C@H](C(=O)N[C@@H](CCC(=O)NCCCOCCOCCOCCCNC(=O)COCC(=O)N[C@@H](Cc2ccc(O)cc2)C(=O)NC(C)(Cc2ccccc2)C(=O)N[C@@H](CC(C)C)C(=O)N[C@@H](CCCC)C(=O)N[C@@H](CCCNC(=N)N)C(=O)N2CCC[C@H]2C(=O)N[C@@H](CCCNC(=N)NC)C(=O)N[C@@H](CC(N)=O)C(N)=O)C(=O)O)CC1 (some centres unmarked) | β-arrestin recruitment, antagonist | – | added: 1 µM Met-enkephalin | IC50 | 1180 nM |

Repeated from above:
| Compound | test | system | conditions | measurement | value |
| --- | --- | --- | --- | --- | --- |
| COc1cc2c(cc1-n1ccnc1)C[C@H]1[C@H]3CCCC[C@@]23CCN1C | ligand displacement, radioligand | – | – | IC50 | 2300 nM |
